Measurements pooled from the literature.
Each line is one published result; not all experiments were run side by side. Several values in a cell are separate wells, animals, samples, runs or records. Numbers after ± are the reported error.
GBA1 R534H: Lysosomal acid glucosylceramidase (GBA1, Homo sapiens, UniProt P04062, R534H)
Chain of UniProt P04062 (whole entry, unmodified, looked up): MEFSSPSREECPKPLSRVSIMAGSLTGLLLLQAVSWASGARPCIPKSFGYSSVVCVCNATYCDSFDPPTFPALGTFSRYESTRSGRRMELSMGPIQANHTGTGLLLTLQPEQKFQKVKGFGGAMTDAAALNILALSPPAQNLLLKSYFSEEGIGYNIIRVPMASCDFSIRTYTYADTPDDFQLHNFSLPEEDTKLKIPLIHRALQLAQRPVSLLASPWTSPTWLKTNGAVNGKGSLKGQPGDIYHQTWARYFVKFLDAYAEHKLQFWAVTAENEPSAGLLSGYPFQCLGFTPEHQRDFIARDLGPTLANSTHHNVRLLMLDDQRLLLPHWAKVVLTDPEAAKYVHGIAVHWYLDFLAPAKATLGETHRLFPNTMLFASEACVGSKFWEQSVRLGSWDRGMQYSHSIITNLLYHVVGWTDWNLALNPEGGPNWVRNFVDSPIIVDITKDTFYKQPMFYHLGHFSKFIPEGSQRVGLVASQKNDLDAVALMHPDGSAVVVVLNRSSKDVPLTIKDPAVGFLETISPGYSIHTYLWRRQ
P4HB: Protein disulfide-isomerase (P4HB, Homo sapiens, UniProt P07237)
Chain of UniProt P07237 (whole entry, looked up): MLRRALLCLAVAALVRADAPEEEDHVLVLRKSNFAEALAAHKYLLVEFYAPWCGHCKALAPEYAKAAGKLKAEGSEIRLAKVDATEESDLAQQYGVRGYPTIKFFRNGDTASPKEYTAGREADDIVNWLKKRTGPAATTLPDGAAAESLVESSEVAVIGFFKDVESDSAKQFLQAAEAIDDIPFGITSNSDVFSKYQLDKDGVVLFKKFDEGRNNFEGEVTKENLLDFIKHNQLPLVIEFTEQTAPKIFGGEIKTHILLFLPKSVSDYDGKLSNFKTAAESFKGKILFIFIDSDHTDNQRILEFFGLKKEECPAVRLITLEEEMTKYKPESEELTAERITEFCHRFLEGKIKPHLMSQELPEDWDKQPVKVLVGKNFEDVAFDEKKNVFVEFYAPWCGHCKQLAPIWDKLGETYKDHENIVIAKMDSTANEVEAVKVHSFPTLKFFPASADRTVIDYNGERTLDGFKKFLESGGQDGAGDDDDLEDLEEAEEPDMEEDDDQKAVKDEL
Gria1/Gria2: Glutamate receptor AMPA 1/2 (Gria1/Gria2, Rattus norvegicus, UniProt P19490+P19491)
Chain of UniProt P19491 (whole entry, looked up): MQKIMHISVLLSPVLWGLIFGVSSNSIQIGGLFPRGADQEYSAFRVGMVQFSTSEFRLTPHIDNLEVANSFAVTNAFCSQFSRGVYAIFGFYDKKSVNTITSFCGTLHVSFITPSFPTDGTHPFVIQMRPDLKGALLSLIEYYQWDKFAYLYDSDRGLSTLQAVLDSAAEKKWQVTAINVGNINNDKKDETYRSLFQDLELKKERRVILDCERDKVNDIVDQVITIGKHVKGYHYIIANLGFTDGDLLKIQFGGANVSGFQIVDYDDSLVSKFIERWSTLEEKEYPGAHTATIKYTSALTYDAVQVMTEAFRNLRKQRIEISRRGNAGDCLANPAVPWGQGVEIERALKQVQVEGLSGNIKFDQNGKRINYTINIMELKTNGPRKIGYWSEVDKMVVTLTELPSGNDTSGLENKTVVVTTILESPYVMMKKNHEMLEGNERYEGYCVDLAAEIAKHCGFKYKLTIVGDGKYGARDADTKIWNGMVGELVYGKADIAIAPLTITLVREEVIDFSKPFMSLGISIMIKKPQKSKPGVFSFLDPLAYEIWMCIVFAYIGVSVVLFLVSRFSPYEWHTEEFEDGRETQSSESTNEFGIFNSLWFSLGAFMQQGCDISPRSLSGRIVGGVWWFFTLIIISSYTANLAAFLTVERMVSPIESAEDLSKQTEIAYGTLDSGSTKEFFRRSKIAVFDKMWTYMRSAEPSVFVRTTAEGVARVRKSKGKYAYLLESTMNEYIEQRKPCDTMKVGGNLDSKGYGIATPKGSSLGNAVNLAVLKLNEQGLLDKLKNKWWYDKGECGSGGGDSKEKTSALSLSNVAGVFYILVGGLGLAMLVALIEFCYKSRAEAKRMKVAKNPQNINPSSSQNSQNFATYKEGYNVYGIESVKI
Chain of UniProt P19490 (whole entry, looked up): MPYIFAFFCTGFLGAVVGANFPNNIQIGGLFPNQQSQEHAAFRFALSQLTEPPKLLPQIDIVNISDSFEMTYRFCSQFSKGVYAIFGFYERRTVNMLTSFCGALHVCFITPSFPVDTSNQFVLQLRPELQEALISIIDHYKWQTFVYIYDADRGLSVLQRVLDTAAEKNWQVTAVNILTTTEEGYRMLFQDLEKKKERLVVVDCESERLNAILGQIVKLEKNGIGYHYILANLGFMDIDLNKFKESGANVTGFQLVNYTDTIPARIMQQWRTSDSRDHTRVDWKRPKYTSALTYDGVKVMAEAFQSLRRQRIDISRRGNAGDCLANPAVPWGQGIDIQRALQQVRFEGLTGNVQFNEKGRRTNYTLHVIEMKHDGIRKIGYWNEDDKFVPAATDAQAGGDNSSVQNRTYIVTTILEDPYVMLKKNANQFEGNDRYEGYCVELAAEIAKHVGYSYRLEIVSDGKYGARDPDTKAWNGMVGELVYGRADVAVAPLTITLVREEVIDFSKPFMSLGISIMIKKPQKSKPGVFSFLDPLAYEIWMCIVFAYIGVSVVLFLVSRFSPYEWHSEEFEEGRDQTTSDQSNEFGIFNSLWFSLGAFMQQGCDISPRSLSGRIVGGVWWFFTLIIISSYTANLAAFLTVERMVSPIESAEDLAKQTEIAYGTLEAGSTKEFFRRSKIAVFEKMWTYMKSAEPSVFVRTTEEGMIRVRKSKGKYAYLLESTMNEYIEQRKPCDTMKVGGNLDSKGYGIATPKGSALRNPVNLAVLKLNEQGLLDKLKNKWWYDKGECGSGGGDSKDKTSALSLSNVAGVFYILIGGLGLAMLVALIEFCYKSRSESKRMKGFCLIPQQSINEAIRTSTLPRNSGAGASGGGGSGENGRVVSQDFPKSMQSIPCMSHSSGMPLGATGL
HDAC9: Histone deacetylase 9 (HDAC9, Homo sapiens, UniProt Q9UKV0)
Chain of UniProt Q9UKV0 (whole entry, looked up): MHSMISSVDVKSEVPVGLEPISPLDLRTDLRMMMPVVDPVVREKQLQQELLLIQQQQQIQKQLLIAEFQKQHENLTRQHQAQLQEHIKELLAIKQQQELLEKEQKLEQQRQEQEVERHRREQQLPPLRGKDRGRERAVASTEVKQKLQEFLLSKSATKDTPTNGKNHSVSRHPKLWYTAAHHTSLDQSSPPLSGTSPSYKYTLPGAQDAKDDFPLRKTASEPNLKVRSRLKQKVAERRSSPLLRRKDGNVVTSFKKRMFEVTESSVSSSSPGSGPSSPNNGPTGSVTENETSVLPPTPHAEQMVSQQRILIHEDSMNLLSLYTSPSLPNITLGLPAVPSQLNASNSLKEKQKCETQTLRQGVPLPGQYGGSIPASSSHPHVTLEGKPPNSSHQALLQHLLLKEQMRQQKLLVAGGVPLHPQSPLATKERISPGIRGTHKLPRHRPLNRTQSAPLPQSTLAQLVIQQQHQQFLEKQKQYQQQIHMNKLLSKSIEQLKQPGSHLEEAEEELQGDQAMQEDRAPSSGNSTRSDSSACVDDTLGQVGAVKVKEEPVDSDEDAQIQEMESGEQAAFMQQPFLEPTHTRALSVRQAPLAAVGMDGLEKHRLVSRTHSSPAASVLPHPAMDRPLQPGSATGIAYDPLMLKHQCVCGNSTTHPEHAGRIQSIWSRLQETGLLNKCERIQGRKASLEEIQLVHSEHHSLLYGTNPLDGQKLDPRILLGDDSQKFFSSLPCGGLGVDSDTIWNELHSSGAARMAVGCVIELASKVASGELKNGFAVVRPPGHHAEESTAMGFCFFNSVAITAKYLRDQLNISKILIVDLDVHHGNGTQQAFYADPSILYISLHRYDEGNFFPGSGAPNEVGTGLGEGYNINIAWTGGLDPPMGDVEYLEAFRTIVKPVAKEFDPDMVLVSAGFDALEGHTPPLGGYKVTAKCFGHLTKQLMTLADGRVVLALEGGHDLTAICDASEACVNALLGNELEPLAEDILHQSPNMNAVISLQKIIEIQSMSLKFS
GBA1: Lysosomal acid glucosylceramidase (GBA1, Homo sapiens, UniProt P04062)
HDAC6: Protein deacetylase HDAC6 (HDAC6, Homo sapiens, UniProt Q9UBN7)
Chain of UniProt Q9UBN7 (whole entry, looked up): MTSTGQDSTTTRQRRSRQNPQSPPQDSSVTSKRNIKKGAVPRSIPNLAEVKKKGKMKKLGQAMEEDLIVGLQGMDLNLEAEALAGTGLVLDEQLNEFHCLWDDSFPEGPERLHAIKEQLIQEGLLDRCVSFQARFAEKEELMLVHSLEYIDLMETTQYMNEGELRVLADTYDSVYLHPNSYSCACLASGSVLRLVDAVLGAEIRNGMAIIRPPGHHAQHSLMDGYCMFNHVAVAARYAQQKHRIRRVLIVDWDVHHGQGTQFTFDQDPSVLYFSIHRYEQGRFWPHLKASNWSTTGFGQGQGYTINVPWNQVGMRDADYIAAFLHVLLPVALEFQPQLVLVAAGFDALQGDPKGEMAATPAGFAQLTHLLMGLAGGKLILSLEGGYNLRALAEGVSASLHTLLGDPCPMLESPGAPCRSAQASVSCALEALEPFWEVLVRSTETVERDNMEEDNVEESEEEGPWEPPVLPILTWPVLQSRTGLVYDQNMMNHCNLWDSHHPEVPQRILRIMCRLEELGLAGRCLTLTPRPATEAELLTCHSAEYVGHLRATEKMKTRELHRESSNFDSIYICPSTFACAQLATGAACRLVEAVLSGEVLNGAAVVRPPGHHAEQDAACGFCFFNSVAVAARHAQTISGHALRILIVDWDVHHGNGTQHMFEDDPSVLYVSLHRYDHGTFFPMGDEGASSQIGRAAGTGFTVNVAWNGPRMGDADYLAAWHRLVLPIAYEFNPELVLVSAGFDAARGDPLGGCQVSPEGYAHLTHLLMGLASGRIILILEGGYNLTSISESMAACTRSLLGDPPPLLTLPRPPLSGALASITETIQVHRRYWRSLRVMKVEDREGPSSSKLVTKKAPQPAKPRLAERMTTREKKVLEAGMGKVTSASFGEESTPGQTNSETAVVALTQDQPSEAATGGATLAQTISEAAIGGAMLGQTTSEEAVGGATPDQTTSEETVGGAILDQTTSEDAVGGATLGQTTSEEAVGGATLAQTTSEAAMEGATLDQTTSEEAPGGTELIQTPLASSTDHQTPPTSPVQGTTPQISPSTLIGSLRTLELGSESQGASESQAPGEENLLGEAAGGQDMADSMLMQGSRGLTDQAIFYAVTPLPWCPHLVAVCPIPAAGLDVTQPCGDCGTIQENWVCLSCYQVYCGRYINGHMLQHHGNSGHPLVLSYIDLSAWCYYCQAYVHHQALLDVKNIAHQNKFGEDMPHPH

| Compound | target or system | assay | test system | conditions | how to read | quantity | result |
| --- | --- | --- | --- | --- | --- | --- | --- |
| CC(C)(C)COCCOCCN1C[C@H](O)[C@@H](O)[C@H](O)[C@@H]1CO | GBA1 R534H | inhibitor, 4MU-β-D-glucopyranoside |  | added: 4MU-β-D-glucopyranoside |  | IC50 | 100 µM |
| O=C(CNc1cccc2ccccc12)N/N=C/c1ccc([N+](=O)[O-])o1 | Trypanosoma cruzi | reporter mRNA translation, inhibitor, item: capped polyadenylated Renilla luciferase mRNA | cell-free extract | concentration not given | relative to: positive over negative control | translation activity | 86.3% and 103% and 78.5% and 85.9% |
| Cc1ccc(-c2ccc(COCCCCCN3C[C@H](O)[C@@H](O)[C@H](O)[C@H]3CO)cc2)cc1 | GBA1 R534H | inhibitor, 4MU-β-D-glucopyranoside |  | added: 4MU-β-D-glucopyranoside |  | IC50 | 0.25 µM |
| Cc1nc2c(F)cc(-c3nc(Nc4ccc(CNC(=O)CCCCCCC(=O)NO)cc4)ncc3F)cc2n1C(C)C | Polyamine deacetylase HDAC10 (HDAC10, Homo sapiens, UniProt Q969S8) | enzyme activity, inhibitor |  |  |  | IC50 | 0.073 µM |
| CCc1nnc(Nc2cnc([C@@H]3CCCN(C(=O)CCc4cccnc4)C3)cn2)s1 | Cyclin-dependent kinase 6 (CDK6, Homo sapiens, UniProt Q00534) | enzyme activity, inhibitor, ADP detection |  |  |  | IC50 | 0.498 µM |
| CC(C)C[C@H](NC(=O)[C@H](Cc1ccc(CN)cc1)NC(=O)[C@H](Cc1ccccc1)N=[N+]=[N-])C(=O)N[C@@H](CC1CCC2CCCCC2C1)C(=O)[C@@]1(C)CO1 (stereo partly shown) | Proteasome subunit beta type-8 (PSMB8, Homo sapiens, UniProt P28062) | enzyme activity, inhibitor |  | lysate |  | IC50 | > 10 µM |
| O=c1c(Oc2ccccc2)c(C(F)(F)F)oc2c(O)c(O)ccc12 | Cullin-1, with ROC1; neddylated (Homo sapiens, UniProt Q13616) | FRET |  | 25 min, added: neddylated Cul1 |  | IC50 | 6.35 ± 0.35 µM |
| OC[C@@H]1[C@@H](O)[C@H](O)[C@@H](O)c2nccn21 | GBA1 R534H |  |  | 30 min preincubation, pH 5.2, added: 200 µM 2,4-dinitrophenyl-β-D-glucopyranoside |  | IC50 | 0.05 µM |
| OC[C@@H]1[C@@H](O)[C@H](O)[C@@H](O)CN1CCCCCOCc1ccc(-c2cccc(F)c2)cc1 | GBA1 R534H | inhibitor, 4MU-β-D-glucopyranoside |  | added: 4MU-β-D-glucopyranoside |  | IC50 | 0.03 µM |
| Cc1cnc(Nc2ccc3c(c2)CCN(C(=O)/C=C/CC(C)C)C3)nc1-c1cnn(C(C)C)c1 | Tyrosine-protein kinase JAK3 (JAK3, Homo sapiens, UniProt P52333) | enzyme activity, inhibitor, ADP detection |  |  |  | IC50 | > 0.03 µM |
| OC[C@@H]1[C@@H](O)[C@H](O)[C@@H](O)CN1CCCCCOCc1ccc(-c2cncnc2)cc1 | GBA1 R534H | inhibitor, 4MU-β-D-glucopyranoside |  | added: 4MU-β-D-glucopyranoside |  | IC50 | 10 µM |
| COc1cc(C(=O)/C=C/c2cc(OC)c(O)c([N+](=O)[O-])c2)ccc1O | P4HB | enzyme activity, inhibitor |  |  |  | IC50 | 98 µM |
| O[C@H]1[C@H](O)[C@@H](O)c2[nH]cnc2[C@@H]1O | bglA (Thermotoga maritima, UniProt Q08638) | enzyme activity, inhibitor |  | pH 6.8, with preincubation |  | IC50 | > 100 µM |
| CN1CCCC1C(=O)NC(Cc1ccc(-n2cccn2)cc1)B(O)O (stereo not shown) | 20S proteasome, beta1 subunit (Plasmodium falciparum, UniProt Q8I0U7+Q8I6T3) | β1 activity, inhibitor |  | added: Ac-nLPnLD-AMC |  | IC50 | > 10 µM |
| Fc1ccc(Nc2nc(NC3CCCCC3)c3ccccc3n2)cc1F | Beta-2 adrenergic receptor (ADRB2, Homo sapiens, UniProt P07550, I153L) | β-arrestin2 recruitment, antagonist, BRET | HEK293 | mutant I153L, added: isoprenaline 1 µM |  | IC50 | 1.26 µM |
| O=C(O)Cc1cc2c(cc1C(=O)c1ccccc1Br)OCO2 | Gria1/Gria2 | ion current, patch clamp |  |  |  | IC50 | 4.56 µM |
| COc1ccccc1C(=O)/C=C/c1ccc(C(=O)O)cc1 | P4HB | enzyme activity, inhibitor |  |  |  | IC50 | > 10 µM |
| CC[C@H](C)[C@@H]1NC(=O)[C@H](Cc2ccccc2C(F)(F)F)NC(=O)CCSCc2cccc(n2)CSCCCNC(=O)[C@H](CCCCCC(=O)O)NC1=O | HDAC9 | enzyme activity, inhibitor, fluorogenic |  |  |  | IC50 | > 30 µM |
| Cc1ccc(N=C2CC(=O)c3sc(C)nc3C2=O)cc1 | N-lysine methyltransferase SMYD2 (SMYD2, Homo sapiens, UniProt Q9NRG4, G165E) | enzyme activity, inhibitor |  |  |  | IC50 | 2 µM |
| O=C(CCNc1cccc2c1C(=O)N(C1CCC(=O)NC1=O)C2=O)NCCOCCOCCOCCN1CCC(CNC(=O)c2cccc(-c3noc(C(F)(F)F)n3)c2)(c2nc(-c3ccccc3)cs2)CC1 (stereo not shown) | HDAC9 | enzyme activity, inhibitor |  |  |  | IC50 | 0.16 µM |
| Cc1cc(C)c(S(=O)(=O)N(CC(=O)O)c2ccc(Nc3ccnc(N4CCCC4)n3)cc2)c(C)c1 | RAC-beta serine/threonine-protein kinase (AKT2, Homo sapiens, UniProt P31751) | enzyme activity, inhibitor |  |  |  | IC50 | > 100 µM |
| C=CCSSC | uncharacterized protein (Bradysia odoriphaga, UniProt A0A2S0X9G4) | binding, competitive fluorescence displacement |  | pH 7.4 |  | IC50 | 8 µM |
| Cc1cc(N)n(-c2ccc(Oc3ccccc3)c(S(=O)(=O)O)c2)n1 | Protein FosB, ΔFosB isoform, with JunD (Fosb, Mus musculus, UniProt P13346) | ΔFosB/JunD binding to AP-1 DNA, inhibitor, fluorescence polarization |  | protein, full length 280 nM, no TCEP, added: 25 nM TMR-cdk5 oligonucleotide |  | IC50 | 10 to 90 µM |
| CCCOc1c(Br)cc(/C=C/C(=O)c2ccc3c(c2)OCCO3)cc1OC | P4HB | enzyme activity, inhibitor |  |  |  | IC50 | > 100 µM |
| CC(C)(O)c1ccc(N2Cc3c(ccnc3-c3ccc(F)cc3OCC(F)(F)F)C2=O)cc1 | GBA1 | enzyme activity, inhibitor |  |  |  | IC50 | > 300 µM |
| COC(=O)c1ccc(/C=C/C(=O)c2ccc(Cl)c(Cl)c2)cc1 | P4HB | enzyme activity, inhibitor |  |  |  | IC50 | 5.2 µM |

| Compound | target or system | assay | test system | conditions | how to read | quantity | result |
| --- | --- | --- | --- | --- | --- | --- | --- |
| COC(=O)Cc1cc2c(cc1C(=O)c1ccc(Cl)cc1Cl)OCO2 | Gria1/Gria2 | ion current, antagonist, patch clamp |  |  |  | IC50 | 4.9 µM |
| O=C(/C=C/c1ccccc1OC(F)F)c1ccc(F)cc1 | P4HB | enzyme activity, inhibitor |  |  |  | IC50 | > 100 µM |
| COc1cccc(CNC(=O)CCC2CCCN(C/C=C/c3ccccc3OC)C2)c1 (stereo not shown) | Trypanosoma cruzi | reporter mRNA translation, inhibitor, item: capped polyadenylated Renilla luciferase mRNA | cell-free extract | concentration not given | relative to: positive over negative control | translation activity | 105% and 96.2% and 95.7% and 86.2% |
| Cc1cc(=O)oc2c(F)c(O[C@@H]3C=C(CO)[C@@H](O)[C@H](O)[C@H]3O)c(F)cc12 | GBA1 |  |  | added: resorufin β-glucoside at Km |  | IC50 | 14.3 ± 1.7 µM |
| c1ccc(CSc2nc3ccccc3cc2CNCCC2CCN(C3CCCC3)CC2)cc1 | atpB/atpE (Pseudomonas aeruginosa, UniProt Q9HT14+Q9HT15) | ATP synthesis, inhibitor | Pseudomonas aeruginosa inverted membrane vesicles | added: NADH |  | IC50 | 0.979 µM |
| COc1cccc(-c2ccc(COCCCCCN3C[C@H](O)[C@@H](O)[C@H](O)[C@H]3CO)cc2)c1 | GBA1 R534H | inhibitor, 4MU-β-D-glucopyranoside |  | added: 4MU-β-D-glucopyranoside |  | IC50 | 2.5 µM |
| Cc1ncc(C(=O)N[C@@H](CCC(=O)O)C(=O)N[C@@H](Cc2ccc3ccccc3c2)C(=O)N[C@@H](CC(C)C)C(=O)NC2CC2c2ccccc2)cn1 (stereo partly shown) | Adenomatous polyposis coli protein (APC, Homo sapiens, UniProt P25054) | ligand displacement, FP |  |  |  | IC50 | 62.8 µM |
| O=C(NO)c1cc(F)cc(OS(=O)(=O)Oc2ccc(Br)cc2)c1 | HDAC6 | enzyme activity, inhibitor, fluorescence |  |  |  | IC50 | 0.225 µM |
| O=C(CCc1ccc(CNC(C(=O)O)C2CCCCC2)cn1)NO (stereo not shown) | HDAC6 | enzyme activity, inhibitor |  |  |  | IC50 | 0.49 µM |
| O=C(NO)c1cccc(OS(=O)(=O)Oc2ccccc2)c1 | HDAC6 | enzyme activity, inhibitor, fluorescence |  |  |  | IC50 | 0.132 µM |
| C[C@@H](O)[C@@H]1NC(=O)[C@H](CCCCN)NC(=O)[C@@H](Cc2ccc(NC(N)=O)cc2)NC(=O)[C@H](Cc2ccc(O)cc2)NC(=O)[C@H](NC(=O)[C@@H](N)Cc2ccc(Cl)cc2)CSSC[C@@H](C(=O)N[C@@H](Cc2ccc3ccccc3c2)C(N)=O)NC1=O | Somatostatin receptor type 1 (SSTR1, Homo sapiens, UniProt P30872) | ligand displacement, radioligand |  |  |  | IC50 | > 1 µM |
| O=C(O)c1ccc(NS(=O)(=O)c2ccc(Cl)c(Cl)c2)cc1 | 17-beta-hydroxysteroid dehydrogenase 13 (Homo sapiens, UniProt Q7Z5P4) | inhibitor, NAD(P)H-Glo |  | added: β-estradiol |  | IC50 | 0.774 µM |
| C[C@@H](Nc1nc2c(cnn2C(C)(C)C)c(=O)n1Cc1cccc(F)c1)c1ccc(Cl)cc1 | High affinity cAMP-specific and IBMX-insensitive 3',5'-cyclic phosphodiesterase 8A (PDE8A, Homo sapiens, UniProt O60658) | enzyme activity, inhibitor |  |  |  | IC50 | 3.23 µM |
| OC[C@@H]1[C@@H](O)[C@H](O)[C@@H](O)CN1CCCCCOCc1ccc(-c2cc(C(F)(F)F)cc(C(F)(F)F)c2)cc1 | GBA1 R534H | inhibitor, 4MU-β-D-glucopyranoside |  | added: 4MU-β-D-glucopyranoside |  | IC50 | 0.8 µM |
| O=C(O)Cc1cc2c(cc1C(=O)c1cccc(Br)c1)OCO2 | Gria1/Gria2 | ion current, patch clamp |  |  |  | IC50 | 4.46 µM |
| Cc1nn(-c2cccc(N)c2)c(=O)c2cnc(Nc3ccc(N4CCNCC4)cc3)nc12 | Fibroblast growth factor receptor 3 (FGFR3, Homo sapiens, UniProt P22607) | enzyme activity, inhibitor |  |  |  | IC50 | > 10 µM |
| N#Cc1ccccc1-c1ccc(COCCCCCN2C[C@H](O)[C@@H](O)[C@H](O)[C@H]2CO)cc1 | GBA1 R534H | inhibitor, 4MU-β-D-glucopyranoside |  | added: 4MU-β-D-glucopyranoside |  | IC50 | 0.6 µM |
| Cc1nc2ccccc2c(=O)n1N | Phospholipase A2 group V (PLA2G5, Homo sapiens, UniProt P39877) | enzyme activity, inhibitor, colorimetric |  |  |  | IC50 | 26.3 ± 0.57 µM |
| O=C(O)Cc1cc2c(cc1C(=O)c1ccccc1I)OCO2 | Gria1/Gria2 | ion current, patch clamp |  |  |  | IC50 | 4.68 µM |
| CC[C@H](C)C(=O)O[C@H]1C[C@@H](C)C=C2C=C[C@H](C)[C@H](CC[C@@H]3CC=CC(=O)O3)[C@H]21 | Cystic fibrosis transmembrane conductance regulator (CFTR, Homo sapiens, UniProt P13569) | apical chloride current, inhibitor | T84, basolaterally permeabilized | added: forskolin, phosphatase inhibitors 1 mM |  | IC50 | 0.95 µM |
| CCOc1cc(CN2CC3(CC(N4CCC(C(=O)O)CC4)=NO3)C2)cc(OCC)c1-c1ccc(F)cc1 | Somatostatin receptor type 5 (SSTR5, Homo sapiens, UniProt P35346, N100V) | cAMP level, agonist, GloSensor | AD293 | N100V mutant, added: CST17 EC80 and forskolin |  | IC50 | 0.525 µM |
| O=C(CN1CN(c2ccccc2)C2(CCN(C(=O)c3ccc4[nH]ncc4n3)CC2)C1=O)NCC(F)(F)F | Epithelial discoidin domain-containing receptor 1 (DDR1, Homo sapiens, UniProt Q08345) | ligand displacement |  |  |  | IC50 | 0.018 µM |
| Nc1ccc(-c2ccc(F)cc2)cc1NC(=O)C1CCOCC1 | HDAC9 | enzyme activity, inhibitor |  |  |  | IC50 | > 33.3 µM |
| CCCCCN1C[C@H](O)[C@@H](O)[C@H](O)[C@H]1CO | GBA1 R534H | inhibitor, 4MU-β-D-glucopyranoside |  | added: 4MU-β-D-glucopyranoside |  | IC50 | 500 µM |
| O=C(/C=C/c1ccccc1)c1ccc2ccccc2c1 | P4HB | enzyme activity, inhibitor |  |  |  | IC50 | 8.4 µM |
| CC(=O)OC1OCC2C=C(C3(C)CCCCC3)CCC21 (single isomer, unassigned; (-)) | Peptidyl-prolyl cis-trans isomerase F, mitochondrial (PPIF, Homo sapiens, UniProt P30405) | enzyme activity, inhibitor |  |  |  | IC50 | < 0.5 µM |
